Measurements from different studies.
Each line is one published result; not all experiments were run side by side. ± gives the spread as reported.

CCN1CCN(Cc2ccc(Nc3ncc(F)c(-c4cc(F)c5nc(CO)n(C(C)C)c5c4)n3)nc2)CC1: “apparent hepatic clearance” 26 L/h (human patients; oral, 150 mg single, geometric mean).
For CCN(CC)CCNC(=O)c1c(C)[nH]c(/C=C2\C(=O)Nc3ccc(F)cc32)c1C, “apparent central volume (V1/F)” read 1780 L (human, hepatocellular carcinoma; oral, 37.5 mg once daily).
CC(C)NC[C@@H](C(=O)N1CCN(c2ncnc3c2[C@H](C)C[C@H]3O)CC1)c1ccc(Cl)cc1 — result for “apparent volume of distribution”: 9270 L (human, Moderate hepatic function, plasma; oral, 100 mg single dose, NCI classification, geometric mean).
For CNC(=O)c1cc(Oc2ccc(NC(=O)Nc3ccc(Cl)c(C(F)(F)F)c3)cc2)ccn1, “apparent volume of distribution” read 167 L (population PK model, bootstrap median; human, AML patients; oral, dose not given).
Under “apparent volume of distribution”, C=CC(=O)N1CCC([C@@H]2CCNc3c(C(N)=O)c(-c4ccc(Oc5ccccc5)cc4)nn32)CC1 is recorded as 1630 L (human; oral, 480 mg, single dose, mean).
C[C@@H](Oc1cc(-c2cnn(C3CCNCC3)c2)cnc1N)c1c(Cl)ccc(F)c1Cl: “apparent oral clearance” 110 ± 42.2 L/h (healthy human; oral, 250 mg single fasted, arithmetic mean).
Under “apparent clearance CL/F”, Cn1cnc2c(F)c(Nc3ccc(Br)cc3Cl)c(C(=O)NOCCO)cc21 is recorded as 16.4 ± 7.08 L/h (human cancer patients, plasma; oral, 75 mg, cycle 1 day 1).
C=CC[C@@H]1/C=C(\C)C[C@H](C)C[C@H](OC)[C@H]2O[C@@](O)(C(=O)C(=O)N3CCCC[C@H]3C(=O)O[C@H](/C(C)=C/[C@@H]3CC[C@@H](O)[C@H](OC)C3)[C@H](C)[C@@H](O)CC1=O)[C@H](C)C[C@@H]2OC — result for “apparent oral clearance (CL/F)”: 8 L/h (healthy humans, whole blood; oral, 5 mg single dose, with: isavuconazole 200 mg once daily after loading).
NC1(c2ccc(-c3nc4ccn5c(=O)[nH]nc5c4cc3-c3ccccc3)cc2)CCC1 — result for “apparent clearance (CL/F)”: 435 ± 125 mL/min (human patients, plasma; oral, 135 mg, alone, expansion).
CCCOc1ccc([C@H]2CNC(=O)N2c2ccc3[nH]cnc3c2)cc1 — result for “apparent terminal half-life”: 2.62 h (human volunteers fasted, plasma; oral solution, 50 mg single dose, day 1, geometric mean).
O=C(NC[C@H](O)CO)c1ccncc1Nc1ccc(I)cc1F: “apparent volume of distribution” 276 L (human; oral, 45 mg, single dose with FOLFIRI).
CCCCC1=NC2(CCCC2)C(=O)N1Cc1ccc(-c2ccccc2S(=O)(=O)Nc2noc(C)c2C)c(COCC)c1: “apparent clearance (CL/F)” 64.7 mL/min (human, plasma; oral, 400 mg single, population PK model, reference subject).

A few entries again:
CC(C)NC[C@@H](C(=O)N1CCN(c2ncnc3c2[C@H](C)C[C@H]3O)CC1)c1ccc(Cl)cc1 — result for “apparent volume of distribution”: 9270 L (human, Moderate hepatic function, plasma; oral, 100 mg single dose, NCI classification, geometric mean).
CCCOc1ccc([C@H]2CNC(=O)N2c2ccc3[nH]cnc3c2)cc1 — result for “apparent terminal half-life”: 2.62 h (human volunteers fasted, plasma; oral solution, 50 mg single dose, day 1, geometric mean).
